# Results collected from several papers.
# Numbered parts are unrelated; each lists some results of a single study. “And” joins repeats or separate records; there may be more than shown.

# Study 1 — read-out: kinase activity; action: inhibitor; technique: ADP-Glo; tested at: 0.0003 µM
# Target: Cyclin-dependent kinase 12, with cyclin K (CDK12, Homo sapiens, UniProt Q9NYV4)
# UniProt Q9NYV4, sequence (whole entry, looked up): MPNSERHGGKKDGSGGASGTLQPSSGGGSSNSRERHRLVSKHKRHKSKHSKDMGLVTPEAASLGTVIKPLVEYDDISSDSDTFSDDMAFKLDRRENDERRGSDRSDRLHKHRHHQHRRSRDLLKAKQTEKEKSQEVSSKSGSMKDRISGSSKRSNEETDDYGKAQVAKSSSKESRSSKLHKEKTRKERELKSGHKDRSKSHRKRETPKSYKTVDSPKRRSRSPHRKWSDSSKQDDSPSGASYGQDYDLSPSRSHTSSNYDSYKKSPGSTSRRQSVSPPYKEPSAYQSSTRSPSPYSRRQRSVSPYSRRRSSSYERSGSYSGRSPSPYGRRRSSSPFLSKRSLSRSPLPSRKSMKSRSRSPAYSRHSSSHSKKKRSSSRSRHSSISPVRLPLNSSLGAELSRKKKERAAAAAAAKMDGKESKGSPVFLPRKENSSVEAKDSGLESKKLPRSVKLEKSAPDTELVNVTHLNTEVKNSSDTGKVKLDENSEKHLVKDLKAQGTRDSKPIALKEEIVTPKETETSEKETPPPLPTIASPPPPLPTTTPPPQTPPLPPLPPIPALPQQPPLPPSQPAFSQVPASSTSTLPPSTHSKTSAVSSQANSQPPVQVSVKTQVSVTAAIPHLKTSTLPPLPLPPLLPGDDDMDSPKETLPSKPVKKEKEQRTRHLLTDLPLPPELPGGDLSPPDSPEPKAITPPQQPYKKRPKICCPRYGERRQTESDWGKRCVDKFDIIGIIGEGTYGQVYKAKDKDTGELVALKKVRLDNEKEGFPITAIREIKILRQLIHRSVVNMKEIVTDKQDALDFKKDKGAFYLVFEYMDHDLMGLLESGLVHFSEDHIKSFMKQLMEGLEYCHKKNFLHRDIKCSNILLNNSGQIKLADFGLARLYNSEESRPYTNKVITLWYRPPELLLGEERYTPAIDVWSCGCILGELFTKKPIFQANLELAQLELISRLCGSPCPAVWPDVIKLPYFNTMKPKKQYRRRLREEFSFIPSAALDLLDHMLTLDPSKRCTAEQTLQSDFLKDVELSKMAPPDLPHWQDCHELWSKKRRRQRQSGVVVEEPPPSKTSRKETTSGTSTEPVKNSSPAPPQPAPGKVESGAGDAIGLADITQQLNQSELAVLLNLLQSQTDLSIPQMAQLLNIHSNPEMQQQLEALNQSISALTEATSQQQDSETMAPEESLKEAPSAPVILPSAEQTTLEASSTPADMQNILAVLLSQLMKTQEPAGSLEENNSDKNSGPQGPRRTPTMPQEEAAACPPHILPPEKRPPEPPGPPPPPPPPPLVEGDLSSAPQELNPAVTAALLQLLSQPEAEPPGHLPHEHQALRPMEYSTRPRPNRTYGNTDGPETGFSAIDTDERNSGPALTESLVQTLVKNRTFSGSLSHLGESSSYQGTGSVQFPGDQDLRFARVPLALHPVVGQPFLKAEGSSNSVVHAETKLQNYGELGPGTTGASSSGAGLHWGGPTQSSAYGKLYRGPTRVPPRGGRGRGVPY
Structure (SMILES),inhibition
CCCCOc1nc(NCc2nc3cc(Cl)c(Cl)cc3[nH]2)c2ncn(CC)c2n1,8.5%
CCn1cnc2c(NCc3nc4cc(Cl)c(Cl)cc4[nH]3)nc(N3CCN(C(=O)c4ccccn4)CC3)nc21,1.5%
CCn1cnc2c(NCc3nc4cc(Cl)c(Cl)cc4[nH]3)nc(N3CCN(C(C)=O)CC3)nc21,10.5%
CCn1cnc2c(NCc3nc4cc(Cl)c(Cl)cc4[nH]3)nc(N3CCN(S(C)(=O)=O)CC3)nc21,-8.8%
CCn1cnc2c(NCc3nc4cc(Cl)c(Cl)cc4[nH]3)nc(N3CCN(C(=O)CNC(C)=O)CC3)nc21,2%
CCn1cnc2c(NCc3nc4cc(F)c(F)cc4[nH]3)nc(N3CCn4ncnc4C3)nc21,9.7%
CCn1cnc2c(NCc3nc4ccc(F)c(F)c4[nH]3)nc(N3CCn4ncnc4C3)nc21,6.7%
CCn1cnc2c(NCc3nc4cc(Cl)c(Cl)cc4[nH]3)nc(N3CCN(c4ccccn4)CC3)nc21,9.6%
CCn1cnc2c(NCc3nc4cc(Cl)c(Cl)cc4[nH]3)nc(N3CCN(C(=O)c4ccncc4)CC3)nc21,-0.1%
CCn1cnc2c(NCc3nc4cc(Cl)c(Cl)cc4[nH]3)nc(N3CCn4ncnc4C3)nc21,15.4%

# Study 2 — read-out: thermal unfolding; technique: differential scanning fluorimetry; tested at: 5.5 µM; direction: higher = more unfolded
# SMILES: C[C@@H]1CN(c2ccc(-c3cc(C(=O)NCCOCCOCCOCCOCCOCCOCCNC(=O)/C=C/c4[nH]cc(C(=O)N[C@@H](CC(N)=O)c5ccc(F)c(Cl)c5)c4-c4ccc(Cl)cc4F)ccc3F)cc2NC(=O)c2ccc(F)cc2C(F)(F)F)C[C@H](C)N1C
# DCAF1: DDB1- and CUL4-associated factor 1 (DCAF1, Homo sapiens, UniProt Q9Y4B6)
# UniProt Q9Y4B6, sequence (whole entry, looked up): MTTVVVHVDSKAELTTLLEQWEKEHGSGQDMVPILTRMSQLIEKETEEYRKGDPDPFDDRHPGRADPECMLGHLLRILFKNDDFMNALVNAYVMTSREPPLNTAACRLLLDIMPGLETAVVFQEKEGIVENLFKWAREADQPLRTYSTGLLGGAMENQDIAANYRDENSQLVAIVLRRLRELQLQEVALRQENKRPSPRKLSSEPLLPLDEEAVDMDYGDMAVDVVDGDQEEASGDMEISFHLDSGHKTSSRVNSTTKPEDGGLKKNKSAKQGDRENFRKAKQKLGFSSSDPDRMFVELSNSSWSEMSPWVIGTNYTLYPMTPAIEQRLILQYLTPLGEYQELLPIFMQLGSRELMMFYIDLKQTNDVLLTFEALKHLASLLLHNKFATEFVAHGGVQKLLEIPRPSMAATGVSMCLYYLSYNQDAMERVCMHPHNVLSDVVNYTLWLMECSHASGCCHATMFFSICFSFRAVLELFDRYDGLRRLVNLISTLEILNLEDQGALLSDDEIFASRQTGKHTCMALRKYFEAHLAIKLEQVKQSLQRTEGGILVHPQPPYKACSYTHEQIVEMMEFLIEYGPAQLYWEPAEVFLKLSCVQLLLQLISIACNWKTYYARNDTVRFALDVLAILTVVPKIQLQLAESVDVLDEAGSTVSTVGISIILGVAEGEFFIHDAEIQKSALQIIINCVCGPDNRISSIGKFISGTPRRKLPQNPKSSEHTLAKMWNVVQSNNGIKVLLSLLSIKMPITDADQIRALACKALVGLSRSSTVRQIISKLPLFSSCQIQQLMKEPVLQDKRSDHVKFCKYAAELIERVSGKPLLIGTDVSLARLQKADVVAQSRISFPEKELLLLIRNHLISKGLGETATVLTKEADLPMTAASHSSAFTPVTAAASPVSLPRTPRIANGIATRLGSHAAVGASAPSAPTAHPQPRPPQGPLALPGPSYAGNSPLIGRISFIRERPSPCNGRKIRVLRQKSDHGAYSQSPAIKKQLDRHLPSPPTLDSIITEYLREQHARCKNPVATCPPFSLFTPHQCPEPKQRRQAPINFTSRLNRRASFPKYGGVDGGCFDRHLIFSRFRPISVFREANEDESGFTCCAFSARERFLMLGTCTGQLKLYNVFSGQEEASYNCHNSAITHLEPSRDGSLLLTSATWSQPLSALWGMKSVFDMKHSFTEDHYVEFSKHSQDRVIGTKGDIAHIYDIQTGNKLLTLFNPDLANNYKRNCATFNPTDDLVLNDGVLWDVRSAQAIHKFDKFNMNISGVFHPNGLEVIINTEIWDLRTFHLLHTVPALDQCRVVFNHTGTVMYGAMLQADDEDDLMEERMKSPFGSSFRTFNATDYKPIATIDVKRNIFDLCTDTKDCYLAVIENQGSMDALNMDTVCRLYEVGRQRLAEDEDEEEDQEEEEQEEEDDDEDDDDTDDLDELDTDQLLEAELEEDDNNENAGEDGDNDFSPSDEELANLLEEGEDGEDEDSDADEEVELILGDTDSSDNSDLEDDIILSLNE
# WDR5: WD repeat-containing protein 5 (WDR5, Homo sapiens, UniProt P61964)
target,setting,SYPRO Orange fluorescence [a.u.]
DCAF1,28 °C,7970
DCAF1,27.6 °C,7840
WDR5,77.61 °C,59100
DCAF1,31.2 °C,8770
WDR5,29.8 °C,13600
DCAF1,33.4 °C,9380
WDR5,84.21 °C,63300
DCAF1,27.2 °C,7650
DCAF1,74.41 °C,44300
WDR5,75.61 °C,51200
WDR5,51.4 °C,16800

# Study 3 — species: female CD-1 mouse; matrix: plasma; route: intravenous; dose: 1 mg/kg
SMILES,clearance [mL/min/kg]
Cc1ccc(O)c(C)c1-c1cnc2[nH]c(-c3cnc(N4CCC(CN5CCN(c6ccc(NC7CCC(=O)NC7=O)cc6F)CC5)CC4)nc3)cc2c1C#N (centres unmarked),31.9
"Cc1ccc(O)c(C)c1-c1cnc2[nH]c(-c3cnc(N4CCC5(CC4)CC(N4CCN(c6ccc(N[C@H]7CCC(=O)NC7=O)cc6F)CC4)CO5)nc3)cc2c1C#N (single isomer, unassigned)",80.2
Cc1ccc(O)c(C)c1-c1cnc2[nH]c(-c3cnc(N4CCC(CN5CCN(c6cc7c(cc6F)c(N6CCC(=O)NC6=O)nn7C)CC5)CC4)nc3)cc2c1C#N,30.7
Cc1ccc(O)c(C)c1-c1cnc2[nH]c(-c3cnc(N4CCC(CN5CCN(c6ccc7c(c6)CN(C6CCC(=O)NC6=O)C7=O)CC5)CC4)nc3)cc2c1C#N (centres unmarked),21.7
Cc1ccc(O)c(C)c1-c1cnc2[nH]c(-c3cnc(N4CCC(CN5CCC(c6ccc(NC7CCC(=O)NC7=O)cc6F)CC5)CC4)nc3)cc2c1C#N (centres unmarked),44.6
Cc1ccc(O)c(C)c1-c1cnc2[nH]c(-c3cnc(N4CCC(CN5CCN(c6ccc7c(c6)C(=O)N(C6CCC(=O)NC6=O)C7=O)CC5)CC4)nc3)cc2c1C#N (centres unmarked),40.7
Cc1ccc(O)c(C)c1-c1cnc2[nH]c(-c3cnc(N4CCC(CN5CCN(c6ccc7c(c6F)CN(C6CCC(=O)NC6=O)C7=O)CC5)CC4)nc3)cc2c1C#N (centres unmarked),23.8

# Study 4 — cell line: U-87 MG; tested at: concentration not given; baseline: DMSO
# Compound: CCN1/C(=C/C=C2\CCCC(/C=C/C3=[N+](CC)c4ccccc4C3(C)C)=C2NCCCCCCCCN2CCC(Nc3nc4ccccc4n3Cc3ccc(F)cc3)CC2)C(C)(C)c2ccccc21
test,log2 fold change
measured: OLFML2A mRNA,-2.55
measured: IRS1 mRNA,-1.61
measured: HASPIN mRNA,-1.9
measured: TRIM39 mRNA,0.81
measured: SLCO4A1 mRNA,1.64
measured: IL11 mRNA,1.44
measured: FGF1 mRNA,-2.97
measured: CDRT1 mRNA,1.05
measured: MAP1LC3B2 mRNA,2.09
measured: PRR9 mRNA,4.25
measured: ARFGEF3 mRNA,1.45
measured: BCL2A1 mRNA,2.89

# Study 5 — organism: Arabidopsis thaliana; strain: Col-0
# Structure (SMILES): CN1C(=O)C(O)(C(=O)O)Oc2cc(F)ccc21 (centres unmarked)
setting,hypocotyl length
"6.25 µg/mL, seed germination, repetition mean",2.1 cm
"100 µg/mL, seed germination, repetition mean",1.34 cm
"100 µg/mL, seed germination, single repetition",1.35 cm and 1.34 cm and 1.31 cm and 1.33 cm
"3.125 µg/mL, seed germination, repetition mean",2.24 cm
"25 µg/mL, seed germination, repetition mean",1.83 cm
"25 µg/mL, seed germination, single repetition",1.86 cm and 1.88 cm and 1.8 cm and 1.9 cm and 1.84 cm
"12.5 µg/mL, seed germination, repetition mean",1.97 cm
"50 µg/mL, seed germination, single repetition",1.7 cm and 1.74 cm and 1.65 cm
"3.125 µg/mL, seed germination, single repetition",2.22 cm and 1.96 cm and 2.21 cm and 2.3 cm and 2.25 cm

# Study 6 — read-out: binding; action: competitor; technique: NanoBRET; cell line: HEK293
# SMILES: C=CC(=O)N1CCN(c2nc(OC[C@@H]3CCCN3C)nc3c2CCN(c2cccc4cccc(C)c24)C3)C[C@@H]1CC#N
# KRAS G12D: GTPase KRas (KRAS, Homo sapiens, UniProt P01116, G12D)
# KRAS Q61H: GTPase KRas (KRAS, Homo sapiens, UniProt P01116, Q61H)
# HRAS: GTPase HRas (HRAS, Homo sapiens, UniProt P01112)
target,setting,normalized BRET
KRAS G12D,741 nM,77.6% and 74.1%
KRAS G12D,153 pM,106%
KRAS Q61H,82.2 nM,93.8% and 81.3% and 85.1%
HRAS,153 pM,115%
KRAS G12D,38.1 pM,104%
KRAS G12D,82.2 nM,93.8% and 92.1%
HRAS,741 nM,104% and 91.1%
KRAS Q61H,3.05 nM,98.9% and 89.2% and 94.9%
HRAS,156 nM,118%
KRAS Q61H,2.22 µM,40.6% and 28.2% and 31.6%

# Study 7 — technique: qRT-PCR; species: mouse, PK-59 xenograft; matrix: tumour; setting: unit not given
# Structure (SMILES): Cc1ncsc1-c1ccc(C(CO)NC(=O)C2CC(O)CN2C(=O)C(C(C)C)n2cc(-c3ccc(COc4c(-c5c(C)c(F)cc6[nH]ncc56)c(C5CC5)cc5c(N6CC7CC6CN7)nc(OC6CCOCC6)nc45)cc3)nn2)cc1 (centres unmarked)
test,setting,how to read,mRNA level
measured: DUSP6,"10 mg/kg, 72 h",baseline: vehicle,0.255 and 0.231
measured: MYC,"30 mg/kg, 144 h",baseline: vehicle,0.415 and 0.539
measured: SPRY4,"intravenous, 10 mg/kg, 72 h","baseline: vehicle, same time point",0.00105 and 0.00136 and 0.00121
measured: DUSP6,"10 mg/kg, 48 h",baseline: vehicle,0.139 and 0.122 and 0.125
measured: DUSP4,"10 mg/kg, 48 h",baseline: vehicle,0.296 and 0.215 and 0.308
measured: ETV4,"10 mg/kg, 144 h",baseline: vehicle,0.329 and 0.26 and 0.341
measured: ETV4,"intravenous, 10 mg/kg, 24 h","baseline: vehicle, same time point",0.00191
measured: ETV4,"intravenous, 10 mg/kg, 2 h","baseline: vehicle, same time point",0.0233 and 0.0219 and 0.0123
measured: SPRY4,"intravenous, 30 mg/kg, 48 h","baseline: vehicle, same time point",0.000297 and 0.000532

# Single results of other studies
Compound,tested on,test,test system,setting,how to read,endpoint,result
COCC1CC2C(CCC3C(O)CCC32)c2ccc(O)cc21 (centres unmarked),SK-OV-3,"DNA microarray, measured: KIF20A",,25 µM,baseline: untreated cells,mRNA level ratio,0.966 and 0.965 and 0.937 and 0.953
COc1cc(C(=O)OCCCN2CCCN(CCCOC(=O)c3cc(OC)c(OC)c(OCc4ccc([N+](=O)[O-])cc4)c3)CC2)cc(OC)c1OC,,,"male mouse, formalin pain","intrathecal, 10 nmol, 0-10 min",,licking and flinching duration,179 s and 237 s and 229 s and 253 s
COCC1CC2C(CCC3(C)C(O)CCC23)c2ccc(O)cc21 (centres unmarked),SK-OV-3,"DNA microarray, measured: KIF20A",,concentration not given,baseline: untreated control,expression ratio,0.845 and 0.925 and 0.97 and 0.966 and 0.883

# For quick reference, copied from above (study 5):
setting,hypocotyl length
"50 µg/mL, seed germination, single repetition",1.7 cm and 1.74 cm and 1.65 cm
"100 µg/mL, seed germination, single repetition",1.35 cm and 1.34 cm and 1.31 cm and 1.33 cm
"25 µg/mL, seed germination, single repetition",1.86 cm and 1.88 cm and 1.8 cm and 1.9 cm and 1.84 cm
"100 µg/mL, seed germination, repetition mean",1.34 cm
